Experimental data gathered from unrelated publications.
Numbered parts are unrelated; each lists some results of a single study. Changes are numbered by the printed parent chain.
Sequence of UniProt O00762 (whole entry, looked up): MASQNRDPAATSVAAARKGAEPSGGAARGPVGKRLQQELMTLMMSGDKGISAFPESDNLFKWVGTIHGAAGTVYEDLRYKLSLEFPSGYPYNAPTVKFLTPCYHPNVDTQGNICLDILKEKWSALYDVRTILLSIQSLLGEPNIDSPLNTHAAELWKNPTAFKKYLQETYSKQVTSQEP
Sequence of UniProt P63146 (whole entry, looked up): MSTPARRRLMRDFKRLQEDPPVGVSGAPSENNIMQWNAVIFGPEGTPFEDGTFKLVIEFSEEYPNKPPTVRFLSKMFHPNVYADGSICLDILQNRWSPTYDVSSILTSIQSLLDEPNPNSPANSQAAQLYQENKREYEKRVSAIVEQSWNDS
Sequence of UniProt Q712K3 (whole entry, looked up): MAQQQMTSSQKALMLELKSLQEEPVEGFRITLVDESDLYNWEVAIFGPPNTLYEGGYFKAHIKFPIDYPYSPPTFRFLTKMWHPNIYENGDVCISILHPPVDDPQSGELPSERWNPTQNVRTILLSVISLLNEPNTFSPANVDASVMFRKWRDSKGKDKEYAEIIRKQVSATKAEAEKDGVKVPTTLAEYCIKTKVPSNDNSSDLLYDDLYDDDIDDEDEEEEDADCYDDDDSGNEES
Sequence of UniProt P62253 (whole entry, looked up): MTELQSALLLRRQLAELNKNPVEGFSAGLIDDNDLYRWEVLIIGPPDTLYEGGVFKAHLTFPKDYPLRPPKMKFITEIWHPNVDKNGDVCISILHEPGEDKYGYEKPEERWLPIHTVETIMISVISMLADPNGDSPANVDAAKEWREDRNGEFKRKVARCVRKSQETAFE
Sequence of UniProt P68036 (whole entry, looked up): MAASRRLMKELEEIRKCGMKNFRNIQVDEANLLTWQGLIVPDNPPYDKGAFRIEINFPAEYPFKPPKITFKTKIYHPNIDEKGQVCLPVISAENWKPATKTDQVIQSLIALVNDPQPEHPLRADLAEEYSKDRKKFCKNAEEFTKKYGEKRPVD
Sequence of UniProt Q9H832 (whole entry, looked up): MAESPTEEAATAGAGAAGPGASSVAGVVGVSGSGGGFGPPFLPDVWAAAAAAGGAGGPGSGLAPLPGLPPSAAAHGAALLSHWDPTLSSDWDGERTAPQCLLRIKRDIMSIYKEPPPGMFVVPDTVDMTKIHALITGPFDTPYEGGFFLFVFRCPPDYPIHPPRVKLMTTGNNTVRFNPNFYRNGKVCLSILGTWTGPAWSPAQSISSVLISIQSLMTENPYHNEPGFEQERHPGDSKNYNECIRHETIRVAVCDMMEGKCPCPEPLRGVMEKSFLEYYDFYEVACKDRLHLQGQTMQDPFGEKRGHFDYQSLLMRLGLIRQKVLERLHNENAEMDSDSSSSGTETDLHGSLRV
Sequence of UniProt Q9C0C9 (whole entry, looked up): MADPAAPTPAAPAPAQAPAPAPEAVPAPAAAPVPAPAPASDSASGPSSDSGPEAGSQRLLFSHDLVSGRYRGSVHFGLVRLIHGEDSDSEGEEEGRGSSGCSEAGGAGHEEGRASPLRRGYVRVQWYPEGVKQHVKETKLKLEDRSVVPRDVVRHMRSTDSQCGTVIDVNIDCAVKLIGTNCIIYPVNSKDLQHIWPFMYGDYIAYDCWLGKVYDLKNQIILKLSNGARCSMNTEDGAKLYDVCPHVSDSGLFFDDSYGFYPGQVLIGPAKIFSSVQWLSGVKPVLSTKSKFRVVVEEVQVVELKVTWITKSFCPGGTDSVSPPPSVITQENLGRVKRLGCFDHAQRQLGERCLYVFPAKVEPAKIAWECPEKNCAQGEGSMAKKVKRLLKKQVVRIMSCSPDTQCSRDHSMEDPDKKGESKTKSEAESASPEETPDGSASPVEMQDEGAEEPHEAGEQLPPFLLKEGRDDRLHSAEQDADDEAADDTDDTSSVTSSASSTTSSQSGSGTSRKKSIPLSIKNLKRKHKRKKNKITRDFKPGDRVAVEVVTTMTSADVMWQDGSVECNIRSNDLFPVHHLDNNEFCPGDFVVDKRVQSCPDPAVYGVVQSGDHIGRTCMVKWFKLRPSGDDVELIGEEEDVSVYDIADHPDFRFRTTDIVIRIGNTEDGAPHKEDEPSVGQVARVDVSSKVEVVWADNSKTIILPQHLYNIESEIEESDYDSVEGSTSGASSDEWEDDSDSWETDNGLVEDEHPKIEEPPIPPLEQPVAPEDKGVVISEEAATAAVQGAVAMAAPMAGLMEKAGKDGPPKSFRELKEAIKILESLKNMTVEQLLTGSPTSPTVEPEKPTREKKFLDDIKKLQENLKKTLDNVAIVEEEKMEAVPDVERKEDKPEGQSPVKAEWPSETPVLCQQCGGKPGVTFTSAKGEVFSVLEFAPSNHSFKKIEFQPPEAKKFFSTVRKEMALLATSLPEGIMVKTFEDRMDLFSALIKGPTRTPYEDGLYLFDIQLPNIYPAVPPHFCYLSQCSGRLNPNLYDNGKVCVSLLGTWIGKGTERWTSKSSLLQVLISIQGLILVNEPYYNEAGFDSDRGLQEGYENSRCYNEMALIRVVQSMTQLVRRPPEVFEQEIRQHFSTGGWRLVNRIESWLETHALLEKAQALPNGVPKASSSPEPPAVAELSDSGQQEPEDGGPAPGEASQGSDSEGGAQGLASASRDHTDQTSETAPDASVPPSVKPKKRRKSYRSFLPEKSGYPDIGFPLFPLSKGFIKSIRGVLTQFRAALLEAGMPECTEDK

Block 1
Target: Phosphate system positive regulatory protein PHO4, full length, GST-tagged (PHO4, Saccharomyces cerevisiae, UniProt P07270, residues 1-312)
Method: competition protein-binding microarray
Form: double-stranded DNA, one strand shown
Medium: in vitro
Concentration: 2 µM
Notes: whole 60-bp probe, lowest competitor level
Together with: Cbf1 competitor, 0.05 µM
Reading: higher = stronger binding
Quantity: fluorescence intensity
Construct (chain): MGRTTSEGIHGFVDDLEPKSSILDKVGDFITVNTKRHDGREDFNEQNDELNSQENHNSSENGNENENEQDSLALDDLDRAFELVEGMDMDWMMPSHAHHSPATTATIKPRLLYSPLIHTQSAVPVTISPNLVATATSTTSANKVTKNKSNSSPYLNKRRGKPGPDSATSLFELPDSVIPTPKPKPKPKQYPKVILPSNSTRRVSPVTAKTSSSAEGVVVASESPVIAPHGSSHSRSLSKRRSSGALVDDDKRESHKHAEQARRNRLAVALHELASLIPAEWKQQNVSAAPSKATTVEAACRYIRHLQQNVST
Sequence = AAAGCGGTAATTTGTTATGTGGGTGCAGATATCTATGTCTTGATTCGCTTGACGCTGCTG; value = 4430 a.u.
Sequence = AGATGGAGAACCTGGCACGTGTACAAGAGTACAAGGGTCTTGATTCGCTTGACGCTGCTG; value = 16900 a.u.
Sequence = GACGGAAGACTCTCCTCCGTGCGATCTCGTCTTCATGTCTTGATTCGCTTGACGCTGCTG; value = 4610 a.u.
Sequence = CGCGCAGGATGCCATCACGGGCGATGGGACCACTACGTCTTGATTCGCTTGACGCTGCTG; value = 5540 a.u.
Sequence = CTTCTGTAAATTTTTCACGTGAATTGACGCGCCCCGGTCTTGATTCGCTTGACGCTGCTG; value = 7120 a.u.
Sequence = GTAACTGTTGTATTGAACGTGGACCAGGACAAGAAAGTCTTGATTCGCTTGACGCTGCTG; value = 10200 a.u.
Sequence = CTTCTGTAAATTTGGTAGGTGGGTGGACGCGCCCCGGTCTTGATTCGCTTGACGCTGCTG; value = 4340 a.u.
Sequence = CGTCCTAGTGATTGGCGAGTGGGTGCCATGAGGAAGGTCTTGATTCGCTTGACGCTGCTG; value = 6270 a.u.
Sequence = AGCAACCTTCTTGGCACCGTGCTTTTTGGCGACCTTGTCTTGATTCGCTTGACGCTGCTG; value = 7000 a.u.
Sequence = CGTCCTAGTGATTGGTCTGTGGGTGCCATGAGGAAGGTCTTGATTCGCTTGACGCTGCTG; value = 6700 a.u.
Sequence = TCATGGTGAATTTTGCACGTGGCCGTCCAAGTCCTTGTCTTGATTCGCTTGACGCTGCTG; value = 15200 a.u.
Sequence = ACTAGTGGCGACACTCAGGTGGTCCTCGGTGCCTTAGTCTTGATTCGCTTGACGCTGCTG; value = 3770 a.u.
Sequence = CTTGTGCGGGGAGGACACGCTGAATAGAAGGCTTGTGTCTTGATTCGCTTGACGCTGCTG; value = 6400 a.u.
Sequence = CGTCCTAGTGATTGTAATGTGGGTGCCATGAGGAAGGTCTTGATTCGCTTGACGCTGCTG; value = 7070 a.u.
Sequence = CATACCCAACCTTGTAGTGTGGGTGAAGATATTTGTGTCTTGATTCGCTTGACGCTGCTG; value = 5630 a.u.
Sequence = TGCAGCGGGTGCGGCCACGTTTTAAAGTGATTCTGCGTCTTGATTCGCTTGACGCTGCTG; value = 11800 a.u.
Sequence = TGGACCTGGCATACTACCGTGCCAGTAAACGTAGGAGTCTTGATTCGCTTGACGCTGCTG; value = 5340 a.u.
Sequence = GTCTTGTCTCATTGCGTGGTGGGTGTCCCCACTTCAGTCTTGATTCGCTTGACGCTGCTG; value = 6500 a.u.
Sequence = CTTCTGTAAATTTGATCCGTGGGTGGACGCGCCCCGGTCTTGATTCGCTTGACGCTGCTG; value = 5670 a.u.

Block 2
Molecule: B1 (RLIM RING domain)
Method: yeast two-hybrid
Medium: yeast
Notes: mostly zero background
Reference: not given
Reading: higher = stronger interaction
Quantity: lacZ reporter activity
B1: RLIM RING domain (UniProt Q9NVW2); chain SFGENDALKTCSVCITEYTEGNKLRKLPCSHEYHVHCIDRWLSENSTCPICRRAVLASGNRE
target = UBE2O UBC core domain (UniProt Q9C0C9); value = 0
target = BIRC6 UBC core domain (UniProt Q9NR09); value = 0
target = UBE2B UBC core domain (UniProt P63146); value = 0
target = UBE2C UBC core domain (UniProt O00762); value = 0
target = UBE2L3 UBC core domain (UniProt P68036); value = 0
target = UBE2Z UBC core domain (UniProt Q9H832); value = 0
target = UBE2G1 UBC core domain (UniProt P62253); value = 0
target = UBE2R2 UBC core domain (UniProt Q712K3); value = 0

Block 3
Target: CCNB3, cyclin fold, Cln2 fusion (human)
Method: yeast growth competition, sequencing
Medium: yeast
Notes: strong parent motif
Reference: not given
Reading: higher = stronger binding
Quantity: normalised enrichment score
Starting sequence: SCAPER docking peptide (human); SNARRSLNFGGST; partner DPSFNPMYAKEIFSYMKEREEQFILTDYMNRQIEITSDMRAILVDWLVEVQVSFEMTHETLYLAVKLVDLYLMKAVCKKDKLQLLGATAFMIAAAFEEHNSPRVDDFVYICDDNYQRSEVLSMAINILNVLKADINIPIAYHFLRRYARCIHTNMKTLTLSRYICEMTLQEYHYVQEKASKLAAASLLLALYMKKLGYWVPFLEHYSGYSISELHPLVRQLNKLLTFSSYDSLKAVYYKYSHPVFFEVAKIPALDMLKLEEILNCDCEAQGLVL
Variant = SNARRNLNFGGST [S6N]; value = 0.61
Variant = SNARRSLNFWGST [G10W]; value = 0.533
Variant = INARRSLNFGGST [S1I]; value = 1.66
Variant = SNQRRSLNFGGST [A3Q]; value = 0.0229
Variant = SWARRSLNFGGST [N2W]; value = 1.73
Variant = YNARRSLNFGGST [S1Y]; value = 1.63
Variant = SNARRSLNMGGST [F9M]; value = 0.707
Variant = SNAWRSLNFGGST [R4W]; value = 0.397
Variant = SGARRSLNFGGST [N2G]; value = 2.01
Variant = TNARRSLNFGGST [S1T]; value = 1.52
Variant = SNAGRSLNFGGST [R4G]; value = 0.198
Variant = SNARASLNFGGST [R5A]; value = 0.295
Variant = SNARRSLNFGMST [G11M]; value = 1.3
Variant = SNARRSLNFIGST [G10I]; value = 0.751
Variant = SNARGSLNFGGST [R5G]; value = -0.0731
Variant = SNPRRSLNFGGST [A3P]; value = 1.6
Variant = SNARRSLNFPGST [G10P]; value = 0.749
Variant = STARRSLNFGGST [N2T]; value = 1.67
Variant = SNARRSLNFLGST [G10L]; value = 0.539
Variant = SNARRSVNFGGST [L7V]; value = 0.0229
Variant = SNARRSLNFGHST [G11H]; value = 1.16
Variant = SNARHSLNFGGST [R5H]; value = 0.296
Variant = SNARRSLDFGGST [N8D]; value = 1.57
Variant = SNARRSLNFGGSC [T13C]; value = 1.59
Variant = SNAQRSLNFGGST [R4Q]; value = -0.297

Block 4
Target: ABI1, truncated, D143A, DHFR fusion (Arabidopsis thaliana)
Method: DHFR PCA, deep sequencing
Medium: yeast
Notes: methotrexate growth selection, single substitutions
Together with: (+)-ABA 17 µM
Reference: wild-type fitted maximum
Reading: higher = stronger binding
Quantity: relative binding score
Starting sequence: PYL1, truncated, DHFR fusion (Arabidopsis thaliana); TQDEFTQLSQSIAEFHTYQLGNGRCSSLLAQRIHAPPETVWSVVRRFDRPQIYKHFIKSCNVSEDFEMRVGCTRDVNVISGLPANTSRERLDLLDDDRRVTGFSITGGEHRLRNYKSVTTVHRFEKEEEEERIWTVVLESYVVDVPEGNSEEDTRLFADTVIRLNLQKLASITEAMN
Variant = I133S; value = 96.6%
Variant = L166Y; value = -11.8%
Variant = V100R; value = 31.8%
Variant = E67P; value = 71.9%
Variant = R163N; value = 58.6%
Variant = G148W; value = 19.8%
Variant = D96R; value = -2.83%
Variant = K116T; value = 77.1%
Variant = K54Y; value = -2.48%
Variant = I33T; value = 8.49%
Variant = E129M; value = 78%
Variant = L8S; value = 15.5%
Variant = G108M; value = -0.373%
Variant = G108K; value = -5.59%
Variant = E127S; value = 84.2%
Variant = L166A; value = 6.24%
Variant = N77F; value = 87.2%
Variant = T120L; value = -9.81%
Variant = W41Q; value = -21.9%
Variant = R123N; value = 84.9%
Variant = Q10W; value = 58.5%
Variant = T17I; value = 37.9%
Variant = D153N; value = 6.53%
Variant = D48I; value = 8.75%
Variant = Q19V; value = 81.3%
